Measurements gathered from unrelated publications.
Numbered parts are unrelated; each lists some results of a single study. Substitutions count along the parent as printed.

Series 1 — technique: RNA Bind-n-Seq; molecule type: RNA; matrix: in vitro; concentration: 20 nM; notes: 6-mer, flanks averaged, single round; with: 150 mM LiCl; relative to: input library; reading: higher = stronger binding
Target: TAR DNA-binding protein 43, full length, His tag (TARDBP, Homo sapiens, UniProt Q13148, residues 1-414)
Sequence	6-mer enrichment (R)
ACCACG	0.863
GACAUC	0.883
GCGCUG	1
UCCGAC	0.809
UCAUUG	0.93
UCAGUU	0.943

Series 2 — technique: universal PBM; molecule type: double-stranded DNA, one strand shown; matrix: in vitro; concentration: not given; reading: higher = stronger binding
Target: Sal-like protein 4, full length isoform B (SALL4, Homo sapiens, UniProt Q9UJQ4-2, residues 1-616)
Notes: 8-mer, flanks averaged, mean of replicates
Sequence	E-score
CCTTCGGC	-0.403
ACAATGGG	0.014
CCCTTTCC	-0.246
CTGGATAA	0.0444
ACGGGTCT	-0.298
AGGCAACC	-0.187

Series 3 — target: CCNE2, cyclin fold, Cln2 fusion (human); technique: yeast growth competition, sequencing; matrix: yeast; notes: strong parent motif; relative to: not given; reading: higher = stronger binding
Starting sequence: BRCA2 docking peptide (human); PSIKRNLLNEFDR; partner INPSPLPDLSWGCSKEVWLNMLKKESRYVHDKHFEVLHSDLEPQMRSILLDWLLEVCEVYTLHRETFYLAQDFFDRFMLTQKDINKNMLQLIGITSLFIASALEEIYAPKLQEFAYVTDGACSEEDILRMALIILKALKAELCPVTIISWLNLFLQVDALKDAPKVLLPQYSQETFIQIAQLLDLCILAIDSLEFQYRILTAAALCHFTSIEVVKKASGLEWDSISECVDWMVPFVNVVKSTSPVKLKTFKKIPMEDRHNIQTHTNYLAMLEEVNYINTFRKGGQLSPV
Variant	normalised enrichment score
S2M	1.1
E10S	0.884
N9T	1.36
N9P	2.02
P1H	2.74
N9V	0.737

Further values, each from its own experiment
Molecule	target	assay	test system	setting	scale	measurement	value
PhoQ, residues 284 288 289 292 302 303 WVSSAF	PhoP, residues 12 14 15 18 19 SQCLL (Escherichia coli, UniProt P23836)	Sort-seq, item: YFP reporter	E. coli	PhoQ-PhoP variant library, with: 10 µM Mg2+	relative to: high Mg2+ state, higher = stronger signaling	fold induction	10.3
